Measured values from different studies.
Several values in a cell are separate wells, animals, samples, runs or records.

SMILES | test system | conditions | scale | plasma concentration
C[C@H](CCC(=O)NCC(=O)O)[C@H]1CC[C@H]2[C@@H]3[C@H](O)C[C@@H]4C[C@H](O)CC[C@]4(C)[C@H]3CC[C@]12C | women, C/C genotype, plasma | dose not given, geometric mean |  | 339 ng/mL
O=C1CCc2ccc(OCCCCN3CCN(c4cccc(Cl)c4Cl)CC3)cc2N1 | patients, plasma, steady state | oral or long-acting depot injection, dose not given, CYP2D6 UM, median |  | 173 ng/mL
O=C(O)c1ccc(O)cc1O | human plasma | mean, both sexes |  | 13600 nM
O=C(O)[C@H](c1ccccc1Cl)N1CCc2sccc2C1 | cat, plasma | dose not given, day 5, together with: clopidogrel plus omeprazole | relative to: clopidogrel alone | no effect
O=C(Nc1cnccc1Cl)N1CCN(Cc2ccc3c(c2)OC(F)(F)O3)CC1 | human, plasma | 2.5 mg once daily, 24 h post dose day 7 |  | not detected
COc1cc(CC(=O)O)ccc1OS(=O)(=O)O | human plasma | median |  | 377 nM
CCn1c(C(=O)N(C2CC2)C2CC2)cc2c3c(ncn3C)c(Nc3cc(C)n(C)n3)nc21 | cancer patients | oral, 200 mg single dose, day 1, 4.0 h |  | 1440 ng/mL
O=C(O)[C@H]1O[C@@H](Oc2cc(O)c3c(=O)c(O)c(-c4ccc(O)c(O)c4)oc3c2)[C@H](O)[C@@H](O)[C@@H]1O | human plasma | median |  | 542 nM
COc1ccccc1OCC(O)CN1CCN(CC(=O)Nc2c(C)cccc2C)CC1 (stereo not shown) | human, plasma | oral, 60 mg/kg/day every 6 h, 1 h post-dose |  | 2160 ng/mL
CC(C)C[C@H](NC(=O)[C@@H](Cc1c[nH]c2ccccc12)NC(=O)[C@H](Cc1ccc(O)cc1)NC(=O)[C@H](CO)NC(=O)[C@H](Cc1c[nH]c2ccccc12)NC(=O)[C@H](Cc1c[nH]cn1)NC(=O)[C@@H]1CCC(=O)N1)C(=O)N[C@@H](CCCNC(=N)N)C(=O)N1CCC[C@H]1C(=O)NCC(N)=O | Chinese boys, precocious puberty, plasma | intramuscular, 22.5 mg, 4 h post-injection day 1, mean |  | 41.6 ng/mL
C[C@H](CCC(=O)NCC(=O)O)[C@H]1CC[C@H]2[C@@H]3CC[C@@H]4C[C@H](O)CC[C@]4(C)[C@H]3C[C@H](O)[C@]12C | women, C/C genotype, plasma | dose not given, geometric mean |  | 105 ng/mL
O=C(O)CCc1ccc(O)c(OS(=O)(=O)O)c1 | human plasma | median |  | 1380 nM
COC(=O)C(c1ccccc1Cl)N1CCC(SCC(=O)c2cccc(OC)c2)C(=CC(=O)O)C1 (stereo not shown) | cat, plasma | dose not given, day 10, together with: clopidogrel plus omeprazole | relative to: clopidogrel alone | decreased
CS(=O)(=O)n1cc2c(n1)CN([C@H]1CO[C@H](c3cc(F)ccc3F)[C@@H](N)C1)C2 | healthy Japanese men, plasma | oral, 10 mg, 168 h, fasted, single dose |  | 8.1 nM
O=C(O)C(O)Cc1ccc(O)cc1 (stereo not shown) | human plasma | mean |  | 10200 nM
CC[C@H](C)[C@H](NC(=O)[C@H](CO)NC(=O)[C@@H](NC(=O)[C@@H]1CCCN1C(=O)[C@H](C)NC(=O)[C@@H](N)CC(N)=O)C(C)C)C(=O)N1CCC[C@H]1C(=O)N[C@@H](CCC(N)=O)C(=O)O | human, plasma | intravenous infusion, 300 mg over 15 min, after extracorporeal circulation |  | 6.9 ng/mL and 5.03 ng/mL and 4.86 ng/mL and 8.47 ng/mL and 8.35 ng/mL and 7.01 ng/mL

Repeated from above:
SMILES | test system | conditions | scale | plasma concentration
COc1cc(CC(=O)O)ccc1OS(=O)(=O)O | human plasma | median |  | 377 nM
CCn1c(C(=O)N(C2CC2)C2CC2)cc2c3c(ncn3C)c(Nc3cc(C)n(C)n3)nc21 | cancer patients | oral, 200 mg single dose, day 1, 4.0 h |  | 1440 ng/mL
